Assay results pooled from the literature.
Protocols differ between the studies behind these lines.
Method: steady-state kinetics
B1: Saccharopine reductase Y99F (Saccharomyces cerevisiae, UniProt P38999); chain MGKNVLLLGSGFVAQPVIDTLAANDDINVTVACRTLANAQALAKPSGSKAISLDVTDDSALDKVLADNDVVISLIPYTFHPNVVKSAIRTKTDVVTSSFISPALRELEPEIVKAGITVMNEIGLDPGIDHLYAVKTIDEVHRAGGKLKSFLSYCGGLPAPEDSDNPLGYKFSWSSRGVLLALRNSAKYWKDGKIETVSSEDLMATAKPYFIYPGYAFVCYPNRDSTLFKDLYHIPEAETVIRGTLRYQGFPEFVKALVDMGMLKDDANEIFSKPIAWNEALKQYLGAKSTSKEDLIASIDSKATWKDDEDRERILSGFAWLGLFSDAKITPRGNALDTLCARLEELMQYEDNERDMVVLQHKFGIEWADGTTETRTSTLVDYGKVGGYSSMAATVGYPVAIATKFVLDGTIKGPGLLAPYSPEINDPIMKELKDKYGIYLKEKTVA
B2: protein (Trichoderma virens, UniProt G9MQB8); chain GQVPVSVNYHFSRKCNKECLFCFHTATTSHVEKPENAKRGLTLLKQAGMKKINFAGGEPFLYPKFLGEMIDFCKETLQLESVSIVTNGSLVKEQFLQKHGRNIDILAVSCDSFNEATNIKIGRGSGDNVQKLYEIGSWCQKYDIKFKLNTVVNKFNHLEDMNDHLNALQPFRWKCFQVLIVTGENDSDKTLRNAHSLTISDDEFDRFCERHSSQTCLVPEPNRLMAKSYLILDEYMRFLDRNGQQPSKSILEVGVQQALQAVFWDEEAFVERGGIYDWNKSSCSSDSKDLEW
B3: sacB S173T (Priestia megaterium, UniProt D5DC07); chain KGNDSKDFNNSYGISHITRDNMVKIPQQQNSDQFKVPAFDESTIKNIASAKGKNASGNTIDLDVWDSWPLQNADGTVATYHGYQIVFALAGDPKDSNDTSVYLFYKKAGDKSIDSWKNAGRVFKDSDKFVPNDPHLKNQTQEWTGSGTLTKDGKVRLFYTDYSGKQYGKQTLTTAQVNMSQPNDNTLKVDGVEDYKSIFDGDGKIYQTVQQFIDEGGYDTGDNHTLRDPHYIEDNGHKYLVFEANTGTEDGYQGEDSLYNRAYYGGNNPFFQSEKKKLLEGSNKEKASLANGALGIIELNDDYTLKKVMKPLITSNTVTDEIERANIFKKDGKWYLFTDSRGSKMTIDGIGQDDVYMLGYVSNTLTGKYKPLNDTGLVLHMDLDPNDKTFTYSHFAVPQTKGDNVVITSYMTNRGFYEDNHSTFAPSFLVNIDGSKTSVVKDRVLEQGQLTVDED
B4: FITM2 (Homo sapiens, UniProt Q8N6M3); chain MEHLERCEWLLRGTLVRAAVRRYLPWALVASMLAGSLLKELSPLPESYLSNKRNVLNVYFVKVAWAWTFCLLLPFIALTNYHLTGKAGLVLRRLSTLLVGTAIWYICTSIFSNIEHYTGSCYQSPALEGVRKEHQSKQQCHQEGGFWHGFDISGHSFLLTFCALMIVEEMSVLHEVKTDRSHCLHTAITTLVVALGILTFIWVLMFLCTAVYFHNLSQKVFGTLFGLLSWYGTYGFWYPKAFSPGLPPQSCSLNLKQDSYKK
B5: pdh1 (Macropsalliota meleagris, UniProt Q3L245); chain AITYQHPDDLPSGVDYDFIVAGGGTAGLVVASRLSENSNWKVLVIEAGPSNKDAFVTRVPGLASTLGAGSPIDWNYTTIPQDGLDGRSLDYPRAKILGGCSTHNGMVYTRGSKDDWNSWAGIIGDQGLGWDSILPAIKKAEKFTQDFTDQSVKGHIDPSVHGFDGKLSVSAAYSNISFNDLLFETTKELNAEFPFKLDMNDGKPIGLGWTQYTIDNHAERSSSATSYLESTGDNVHVLVNTLVTRVLSASGNGTDFRKVEFAVDANSPKKQLEAKKEVIVAGGVIASPQILMNSGIGERKVLQAVGIDTLIDNPSVGKNLSDQGATSVMFDTTLPSTDFDVDAALTEWTNSHTGPLARGARLNHLTFVRLPDDKLNGQDPSSGKNSPHIEFQFAQITPQVPTLGVPKQAPLPAANSYRLLLQLAVVNLYSISRGSISLSDNNPFTYPLIDLNMFKEDIDIAILREGIRSAGRMFSSKAFKNSVNKFVYPPADATSDEDLDAFLRSSTFSYVHGVGTLSMSPKGASWGVVNPDFKVKGTSGLRVVDASVIPHAPAAHTQLPVYAFAEYASALIAKSYN
B6: enzyme (Rattus norvegicus, UniProt P06757); chain STAGKVIKCKAAVLWEPHKPFTIEDIEVAPPKAHEVRIKMVATGVCRSDDHAVSGSLFTPLPAVLGHEGAGIVESIGEGVTCVKPGDKVIPLFSPQCGKCRICKHPESNLCCQTKNLTQPKGALLDGTSRFSCRGKPIHHFISTSTFSQYTVVDDIAVAKIDAAAPLDKVCLIGCGFSTGYGSAVQVAKVTPGSTCAVFGLGGVGLSVVIGCKTAGAAKIIAVDINKDKFAKAKELGATDCINPQDYTKPIQEVLQEMTDGGVDFSFEVIGRLDTMTSALLSCHSACGVSVIVGVPPSAQSLSVNPMSLLLGRTWKGAIFGGFKSKDAVPKLVADFMAKKFPLEPLITHVLPFEKINEAFDLLRAGKSIRTVLTF
Sequence of UniProt Q8KN33 (whole entry, looked up): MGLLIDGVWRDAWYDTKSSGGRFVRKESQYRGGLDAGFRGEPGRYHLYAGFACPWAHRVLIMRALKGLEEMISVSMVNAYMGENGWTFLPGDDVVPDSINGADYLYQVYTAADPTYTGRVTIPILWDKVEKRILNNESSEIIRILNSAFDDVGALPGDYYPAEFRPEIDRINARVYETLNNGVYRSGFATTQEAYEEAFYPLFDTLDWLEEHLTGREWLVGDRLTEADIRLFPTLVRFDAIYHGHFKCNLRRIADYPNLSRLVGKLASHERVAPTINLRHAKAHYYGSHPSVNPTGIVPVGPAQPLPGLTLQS
Sequence of UniProt Q01740 (whole entry, looked up): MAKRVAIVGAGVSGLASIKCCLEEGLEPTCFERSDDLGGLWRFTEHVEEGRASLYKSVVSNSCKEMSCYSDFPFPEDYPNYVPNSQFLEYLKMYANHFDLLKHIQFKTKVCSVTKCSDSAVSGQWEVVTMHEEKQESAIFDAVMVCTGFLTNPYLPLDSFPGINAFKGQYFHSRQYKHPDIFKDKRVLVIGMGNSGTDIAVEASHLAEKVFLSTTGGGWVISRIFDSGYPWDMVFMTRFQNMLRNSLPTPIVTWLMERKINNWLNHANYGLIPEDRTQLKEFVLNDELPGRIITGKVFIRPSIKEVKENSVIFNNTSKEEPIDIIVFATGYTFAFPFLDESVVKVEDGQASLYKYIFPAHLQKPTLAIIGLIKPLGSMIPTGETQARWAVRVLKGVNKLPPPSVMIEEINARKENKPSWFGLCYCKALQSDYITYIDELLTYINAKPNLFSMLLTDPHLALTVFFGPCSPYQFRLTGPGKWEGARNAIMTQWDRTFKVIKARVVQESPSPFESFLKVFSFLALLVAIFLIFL
Sequence of UniProt E1V931 (whole entry, looked up): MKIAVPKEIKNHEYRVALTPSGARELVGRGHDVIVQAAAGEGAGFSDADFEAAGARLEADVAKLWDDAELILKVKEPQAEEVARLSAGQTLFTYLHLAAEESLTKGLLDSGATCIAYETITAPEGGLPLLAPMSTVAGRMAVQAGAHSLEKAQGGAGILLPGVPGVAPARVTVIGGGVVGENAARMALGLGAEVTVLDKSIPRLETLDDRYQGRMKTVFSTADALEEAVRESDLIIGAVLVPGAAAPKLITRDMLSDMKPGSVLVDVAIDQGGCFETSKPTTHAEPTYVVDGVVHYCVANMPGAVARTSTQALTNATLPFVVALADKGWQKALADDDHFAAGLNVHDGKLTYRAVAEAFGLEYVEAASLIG
Sequence of UniProt A8NCK5 (whole entry, looked up): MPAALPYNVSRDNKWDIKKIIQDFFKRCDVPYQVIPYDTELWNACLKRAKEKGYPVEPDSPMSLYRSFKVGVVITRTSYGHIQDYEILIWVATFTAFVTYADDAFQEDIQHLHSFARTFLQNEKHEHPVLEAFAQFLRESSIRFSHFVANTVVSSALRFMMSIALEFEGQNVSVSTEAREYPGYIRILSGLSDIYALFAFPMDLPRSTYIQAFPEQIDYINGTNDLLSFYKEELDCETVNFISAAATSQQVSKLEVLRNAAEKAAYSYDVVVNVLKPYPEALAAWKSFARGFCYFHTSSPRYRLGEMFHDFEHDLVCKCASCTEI
Sequence of UniProt P0AB87 (whole entry, looked up): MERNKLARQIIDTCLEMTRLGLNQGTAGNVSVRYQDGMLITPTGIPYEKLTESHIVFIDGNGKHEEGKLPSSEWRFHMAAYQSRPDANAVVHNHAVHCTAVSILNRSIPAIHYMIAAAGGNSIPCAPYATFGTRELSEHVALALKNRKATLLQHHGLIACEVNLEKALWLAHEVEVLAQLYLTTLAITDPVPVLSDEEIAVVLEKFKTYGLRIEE

Molecule	substrate	medium	pH	temperature	notes	added	Km [µM]
B1 (Saccharopine reductase Y99F)	N[C@@H](CCCCN[C@@H](CCC(=O)O)C(=O)O)C(=O)O		pH 9	25 °C		saccharopine	5600
B2 (protein)	O=c1ccn([C@@H]2O[C@H](COP(=O)(O)OP(=O)(O)OP(=O)(O)O)[C@@H](O)[C@H]2O)c(=O)[nH]1		pH 7.5		KCl 150 mM	SAM 1 mM, dithionite 5 mM	79
octaprenyl-diphosphate synthase (Bacteroides fragilis, UniProt Q5LIZ3)	C=C(C)CCO[P@@](=O)(O)OP(=O)(O)O		pH 7.6	37 °C		FPP; Triton X-100.1%; MgCl2 10 mM	11
pcpF (Sphingobium chlorophenolicum, UniProt Q8KN33)	OCCS		pH 6.5			GS-TriCH, ascorbic acid 2 mM	930
FMO1 (Homo sapiens, UniProt Q01740)	CN(C)CCCOc1nn(Cc2ccccc2)c2ccccc12	HEK293 microsomes		37 °C	not purified	NADPH regenerating system	60
B3 (sacB S173T)	OC[C@H]1O[C@@](CO)(O[C@H]2O[C@H](CO)[C@@H](O)[C@H](O)[C@H]2O)[C@@H](O)[C@@H]1O		pH 6.6				41800
fucA (Escherichia coli, UniProt P0AB87)	C[C@@H](O)[C@@H](O)C(=O)COP(=O)(O)O		pH 7.8	30 °C			980
Cop6 (Coprinopsis cinerea, UniProt A8NCK5)	CC(C)=CCC/C(C)=C/CC/C(C)=C/CO[P@@](=O)(O)OP(=O)(O)O		pH 8	30 °C		MgCl2 10 mM	7.6
B4 (FITM2)	CCCCCCCC/C=C\CCCCCCCC(=O)SCCNC(=O)CCNC(=O)[C@H](O)C(C)(C)COP(=O)(O)OP(=O)(O)OC[C@H]1O[C@@H](n2cnc3c(N)ncnc32)[C@H](O)[C@@H]1OP(=O)(O)O		pH 7.5	37 °C	apparent		10
enzyme (Halomonas elongata, UniProt E1V931)	NC(=O)c1ccc[n+]([C@@H]2O[C@H](COP(=O)(O)OP(=O)(O)OC[C@H]3O[C@@H](n4cnc5c(N)ncnc54)[C@H](O)[C@@H]3O)[C@@H](O)[C@H]2O)c1		pH 10	25 °C	cofactor varied		260
B5 (pdh1)	CN(C)c1ccc2nc3ccc(N(C)C)c([N+](=O)[O-])c3[s+]c2c1		pH 7.5	22 °C	apparent		140
B6 (enzyme)	OC1CCCCC1		pH 7.3	37 °C			540

For quick reference, copied from above:
Molecule	substrate	medium	pH	temperature	notes	added	Km [µM]
pcpF (Sphingobium chlorophenolicum, UniProt Q8KN33)	OCCS		pH 6.5			GS-TriCH, ascorbic acid 2 mM	930
